# Measured values from different studies.
# Protocols differ between the studies behind these lines. ± marks the error that the study gave.
# BCHE: Cholinesterase (BCHE, Homo sapiens, UniProt P06276)
# Sequence of UniProt P06276 (whole entry, looked up): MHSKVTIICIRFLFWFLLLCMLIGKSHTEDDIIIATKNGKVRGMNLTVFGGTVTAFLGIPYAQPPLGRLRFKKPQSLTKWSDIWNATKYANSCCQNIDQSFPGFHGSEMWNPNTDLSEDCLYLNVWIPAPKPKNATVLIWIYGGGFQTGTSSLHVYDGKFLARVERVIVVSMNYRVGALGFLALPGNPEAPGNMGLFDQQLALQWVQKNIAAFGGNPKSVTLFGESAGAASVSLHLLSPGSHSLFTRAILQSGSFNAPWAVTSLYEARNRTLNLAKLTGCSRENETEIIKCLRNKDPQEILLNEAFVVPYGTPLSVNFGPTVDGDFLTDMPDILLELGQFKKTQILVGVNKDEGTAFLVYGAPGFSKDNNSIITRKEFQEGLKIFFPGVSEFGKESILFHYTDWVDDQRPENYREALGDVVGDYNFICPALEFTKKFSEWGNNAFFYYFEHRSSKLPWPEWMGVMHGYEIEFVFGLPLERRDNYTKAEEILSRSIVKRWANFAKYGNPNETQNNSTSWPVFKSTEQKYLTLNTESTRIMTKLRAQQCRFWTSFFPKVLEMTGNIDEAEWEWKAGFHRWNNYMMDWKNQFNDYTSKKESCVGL
Structure (SMILES),tested on,test,test system,conditions,how to read,quantity,value
CCN(CC)CCOCCOC(=O)C1(c2ccccc2)CCCC1,Plasmodium falciparum,,3D7,,,IC50,12.6 µM
O=C(NC(=O)c1ccccc1Cl)Nc1ccc(Cl)cc1,Ostrinia furnacalis,leaf dipping,,"200 mg/L, 96 h",,mortality,48.4 ± 2.6%
O[C@H](CNCCN1CCN(C(c2ccccc2)c2ccccc2)CC1)c1cc(Cl)cc2c1-c1ccc(Cl)cc1C2,Plasmodium falciparum,,3D7,,baseline: HepG2 CC50 over IC50,selectivity index,410
O=[N+]([O-])c1ccc(N2CCN(CCC(O)c3ccc(F)cc3)CC2)c(C(F)(F)F)c1 (stereo not drawn),Salmonella typhimurium,SOS/umu test,TA1535/pSK1002,"0.008 mg/mL, 4 h, with S9, lower range",,survival,119%
Cc1cc(C(=O)NC(C)(C)COc2cccc3c2C(N)=NS(=O)(=O)N3)cc(C)n1,Escherichia coli,"Ames test, initial",WP2 uvrA,"15.0 µg/plate, added: rat liver S9",baseline: solvent control,revertant ratio,0.9
CC(=O)N1CCC(C(=O)N2CCN3C(=O)c4cc(-c5ccccc5)ccc4NC(=O)C3C2)CC1 (stereo not drawn),Salmonella typhimurium,,TA100,"1581 µg/plate, with rat liver S9",,revertants per plate,107
Nc1c2ccccc2nc2ccccc12,Salmonella typhimurium,"Ames test, initial",TA1537,75 µg/plate,baseline: solvent control,revertant ratio,57.2
O=[N+]([O-])c1ccc(N2CCC(NCCC(O)c3ccc(F)c4ccccc34)CC2)c(C(F)(F)F)c1 (stereo not drawn),Salmonella typhimurium,"SOS response, SOS/umu test","TA1535/pSK1002, TGA medium","0.000122 mg/mL, 4 h, added: 10% rat liver S9",baseline: untreated,induction factor,0.9
Nc1ccc2cc3ccccc3cc2c1,Salmonella typhimurium,"Ames test, confirmatory",TA1537,"2.0 µg/plate, added: rat liver S9",baseline: solvent control,revertant ratio,4.1
COc1cc(N)c(Cl)cc1C(=O)NC[C@@H]1CCN2CCC[C@@H]12,BCHE,inhibitor,,,,IC50,7 ± 0.26 µM
COc1cccc(-c2n[nH]c(SCc3ccccn3)n2)c1OC,Escherichia coli,"Ames test, preincubation",WP2 uvrA,"0.25 mg/plate, without S9",,revertant colonies per plate,13
OC(CCN1CC=C(c2ccc(F)cc2)CC1)c1ccc(F)c2ccccc12 (stereo not drawn),Salmonella typhimurium,SOS/umu test,TA1535/pSK1002,"0.008 mg/mL, 4 h, with S9, lower range",,survival,112%
OC(CCN1CCCCC1)(c1ccccc1)C1CCCCC1 (stereo not drawn),Plasmodium falciparum,,7G8,,,IC50,5.01 µM
[Cl-].[Cl-].[Pt+2].[Ru+2].c1ccc(-c2nc3ccccc3nc2-c2ccccn2)nc1.c1cnc2c(c1)ccc1cccnc12.c1cnc2c(c1)ccc1cccnc12,Danio rerio,,embryos,"30 µM, 24 h",,survival rate,86.7 ± 3.4%
CNC(=O)c1c(N(C)N=O)ncn1C,Salmonella typhimurium,"mutagenicity, Ames plate incorporation",TA100,"500 µg/plate, without S9, methanol",,revertant colonies per plate,116 ± 16
Fc1ccc(C2=CCNCC2)cc1,Salmonella typhimurium,"genotoxicity, SOS/umu test",TA1535/pSK1002,"0.125 mg/mL, 4 h, with S9, full range",,induction factor,0.6
Clc1ccccc1CNCC1CCC(CNCc2ccccc2Cl)CC1 (stereo not drawn),BCHE,"inhibitor, fluorometric",,,,IC50,14.6 ± 17 µM
[Cl-].[Cl-].[Pt+2].[Ru+2].c1ccc(-c2nccnc2-c2ccccn2)nc1.c1cnc2c(c1)ccc1cccnc12.c1cnc2c(c1)ccc1cccnc12,Danio rerio,,embryos,"15 µM, 96 h",,hatching rate,63.3 ± 4.2%
COCc1nn(Cc2ccc(Cn3ccccc3=O)cc2)cc1C(=O)NCc1nccc(OC)c1F,bacteria,"Ames test, non-GLP",,concentration not given,,mutagenicity,negative
[Cl-].[Cl-].[Pt+2].[Ru+2].c1ccc(-c2nc3cc4ccccc4cc3nc2-c2ccccn2)nc1.c1cnc2c(c1)ccc1cccnc12.c1cnc2c(c1)ccc1cccnc12,Danio rerio,,embryos,"15 µM, 48 h",,survival rate,96.7 ± 2.9%
O=[N+]([O-])c1ccc(NC2CCNCC2)c(C(F)(F)F)c1,Salmonella typhimurium,SOS/umu test,TA1535/pSK1002,"0.125 mg/mL, 4 h, without S9, full range",,survival,85.6%

# Repeated from above:
Structure (SMILES),tested on,test,test system,conditions,how to read,quantity,value
O=[N+]([O-])c1ccc(N2CCN(CCC(O)c3ccc(F)cc3)CC2)c(C(F)(F)F)c1 (stereo not drawn),Salmonella typhimurium,SOS/umu test,TA1535/pSK1002,"0.008 mg/mL, 4 h, with S9, lower range",,survival,119%
Cc1cc(C(=O)NC(C)(C)COc2cccc3c2C(N)=NS(=O)(=O)N3)cc(C)n1,Escherichia coli,"Ames test, initial",WP2 uvrA,"15.0 µg/plate, added: rat liver S9",baseline: solvent control,revertant ratio,0.9
CC(=O)N1CCC(C(=O)N2CCN3C(=O)c4cc(-c5ccccc5)ccc4NC(=O)C3C2)CC1 (stereo not drawn),Salmonella typhimurium,,TA100,"1581 µg/plate, with rat liver S9",,revertants per plate,107
